# Measurements collected from several papers.
# Numbered parts are unrelated; each lists some results of a single study. Substitutions count along the parent as printed.

# Block 1
# Target: Centromere-binding protein 1, full length, His-tagged (CBF1, Saccharomyces cerevisiae, UniProt P17106, residues 1-351)
# Sequence of UniProt P17106 (whole entry, looked up): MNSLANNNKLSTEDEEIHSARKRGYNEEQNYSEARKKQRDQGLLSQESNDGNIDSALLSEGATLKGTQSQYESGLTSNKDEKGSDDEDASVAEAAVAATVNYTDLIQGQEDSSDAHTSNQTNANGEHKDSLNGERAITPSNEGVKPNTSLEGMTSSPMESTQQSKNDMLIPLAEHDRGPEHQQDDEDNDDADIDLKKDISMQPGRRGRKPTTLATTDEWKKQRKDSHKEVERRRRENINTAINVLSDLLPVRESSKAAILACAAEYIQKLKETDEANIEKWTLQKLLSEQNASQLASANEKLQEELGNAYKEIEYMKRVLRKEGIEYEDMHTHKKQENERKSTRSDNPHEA
# Technique: competition protein-binding microarray
# Molecule type: double-stranded DNA, one strand shown
# Medium: in vitro
# Tested at: 2 µM
# Setting: whole 60-bp probe, lowest competitor level
# Added: Pho4 competitor, 0.05 µM
# Direction: higher = stronger binding
# Constant ends, left off below: … GTCTTGATTCGCTTGACGCTGCTG
Sequence,fluorescence intensity
CCAATCTGGGCAAAGCGCGTGAAGATCAAGACTCGC,63.5 a.u.
TTCAACAGGATCATTAATGTGACGGTCGATCGAAGC,63.5 a.u.
AATCTTTCAATCGCCATCGTGGGTAAGGATACGCCT,66.4 a.u.
GTCTTGTCTCATTGTTGTGTGGGTGTCCCCACTTCA,78.9 a.u.
GAAAAGTGGTATGCACTCGTGGGTATTTTTACAACT,102 a.u.
AAATTACTAAGTTGACTTGTGGGTGACGCCGTATGA,78.1 a.u.
ACCTACCCGCTTCATCACATGAACACCGCTTCCTGA,222 a.u.
CGTCCTAGTGATTGTCACCATACTTCCATGAGGAAG,92.8 a.u.
TATGCGATGAATACGCACATGGGCTCTCCTGGCGGA,74.1 a.u.
CTTCTGTAAATTTGTGCGGTGGGTGGACGCGCCCCG,84.9 a.u.
CTAAGGCTGATGCTCAACGTGAAAAGGCTTTGAACG,84.6 a.u.
TTCCCATTGACGTACAAGGTGATGCTGATCGTTCGG,67.9 a.u.
TATCTTGTCATCCACCATGTGTCTTAGTCGTTGATA,89.4 a.u.
TAAACACCATCACTACACGTTTTAAACAAAACAAAC,116 a.u.
GTCTTGTCTCATTGAGAGGTGGGTGTCCCCACTTCA,68.8 a.u.
CTTCTGTAAATTTGTCACCTAACTTGACGCGCCCCG,76.2 a.u.
TGAAAGGTTCTTTGACACATGTAAAGCTCCCTAAGT,98.5 a.u.
CGGGGTTAAGTTTGCGCTGTGGGTGGCTTGCAGCAG,79 a.u.
TGTGGGAATTGTACCCACGATCCCCGCATTACGAGT,67.4 a.u.

# Block 2
# Target: Fragile X messenger ribonucleoprotein 1, C-terminal low-complexity region (Fmr1, Mus musculus, UniProt P35922)
# Technique: RNA Bind-n-Seq
# Molecule type: RNA
# Medium: in vitro
# Tested at: 200 nM
# Setting: whole 134-nt RNA, ends assumed
# Added: 150 mM KCl
# Relative to: input library
# Direction: higher = stronger binding
# Constant ends, left off below: GGGAGUUCUACAGUCCGACGAUC … UGGAAUUCUCGGGUGUCAAGG
Sequence,log2 enrichment
CCUGUGCUACACAUCGUAUGUACCGAAUCGGGGAAAAAAAGGGGUUUGGGGUUUUUGGGGAAAGUAUUAUGUUACGCCGUUCGGAUCUGC,0.461
AGUCCUGUGCUACACAUCGUAUGUACCGAAUCGGAAAAAGGUUUUUGGAAAAAAAGGAAAGUAUUAUGUUACGCCGUUCGGAUCUGCACU,-1.29
GCAGGAAGUAAAAACAAAUGGAAAUGCUUCGGAUCGUGGCAGGGGUGGGGGUUGCUAAGGAAAGGGUGGGAUGGGAGUGGGUAAAGAGUU,0.413
AAGUCCUGUGCUACACAUCGUAUGUACCGAAUCGGGAAAAGGGAAAAGGAAAAGGGGAAAGUAUUAUGUUACGCCGUUCGGAUCUGCACU,0.0596
UUUUGCAUUUAGGGUUUUAACCAAGAAGAUCUGGAAGAAGAAAAAGGUGAAACACAGGUAAAAGAAGCAGAAGAUUCAGAUUCUGAUGAU,-1.96
GCAGGAAGUAAAAACAAAUGGAAAUGCUUCGGAUAGUGGCAGGGGUGGGGGUUGCUAAGGAAAGGGUGGGAUGGGAGUGGGUAAAGAAAU,0.534
CAAGUCCUGUGCUACACAUCGUAUGUACCGAAUCGGUUUUUUUGGAGGUUUUUGGAAAGUAUUAUGUUACGCCGUUCGGAUCUGCACUUC,-0.489
AGUCCUGUGCUACACAUCGUAUGUACCGAAUCGGGGUUUGGGGUUUGGGGAAAGGGGAAAGUAUUAUGUUACGCCGUUCGGAUCUGCACU,0.861
CCUCAAGUCCUGUGCUACACAUCGUAUGUACCGAAUCGGUGGUGGAAAAAGGAAAGUAUUAUGUUACGCCGUUCGGAUCUGCACUUCCAG,0.141
GUCCUGUGCUACACAUCGUAUGUACCGAAUCGGGGUUUUUGGGGAAAGGGGUUUGGGGAAAGUAUUAUGUUACGCCGUUCGGAUCUGCAC,0.649
CAAGUCCUGUGCUACACAUCGUAUGUACCGAAUCGGUUUUUGGAAAGGAAAAAGGAAAGUAUUAUGUUACGCCGUUCGGAUCUGCACUUC,-0.665

# Block 3
# Target: CCNE1, cyclin fold, Cln2 fusion (human)
# Technique: yeast growth competition, sequencing
# Medium: yeast
# Setting: strong parent motif
# Relative to: not given
# Direction: higher = stronger binding
# Starting sequence: CDKN1B docking peptide (human); PSACRNLFGPVDH
Substitution,normalised enrichment score
G9W,0.992
P1M,3.84
G9H,1.1
R5I,0.316
F8E,-0.256
C4N,0.609
A3L,1.15
A3I,2.13

# Other studies, line by line
Substance,target,assay,system,setting,how to read,endpoint,value
"PhoQ, residues 284 288 289 292 302 303 ASTSDA","PhoP, residues 12 14 15 18 19 NQFFI (Escherichia coli, UniProt P23836)","Sort-seq, measured: YFP reporter",E. coli,"PhoQ-PhoP variant library, added: 10 µM Mg2+","relative to: high Mg2+ state, higher = stronger signaling",fold induction,8.85

# Some of these lines once more (block 1):
Sequence,fluorescence intensity
CTAAGGCTGATGCTCAACGTGAAAAGGCTTTGAACG,84.6 a.u.
TGTGGGAATTGTACCCACGATCCCCGCATTACGAGT,67.4 a.u.
TAAACACCATCACTACACGTTTTAAACAAAACAAAC,116 a.u.
CTTCTGTAAATTTGTGCGGTGGGTGGACGCGCCCCG,84.9 a.u.
